{"data": "Measured values gathered from unrelated publications", "note": "Protocols differ between the studies behind these lines."}
{"SMILES": "Cc1ccc([C@@H]2O[C@H](CO)[C@@H](O)[C@H](O)[C@H]2O)cc1Cc1ccc(-c2ccc(F)cc2)s1", "test system": "human, maintenance hemodialysis patients", "setting": "oral, 100 mg once daily, steady state, median", "endpoint": "trough concentration", "result": "125 ng/mL"}
{"SMILES": "N#Cc1ccc2c(c1)[C@H]1CCCN(C(=O)c3ccc4[nH]cnc4c3)[C@H]1C2", "test system": "human, plasma", "setting": "240 mg once daily, day 2", "endpoint": "trough plasma concentration", "result": "2870 nmol/L"}
{"SMILES": "O=C1Nc2ccc(Cl)cc2[C@@](C#CC2CC2)(C(F)(F)F)O1", "test system": "human, plasma", "setting": "oral, 600 mg, day 29, median", "endpoint": "trough plasma concentration", "result": "2260 ng/mL"}
{"SMILES": "CC1(C)CCC(CN2CCN(c3ccc(C(=O)NS(=O)(=O)c4ccc(NCC5CCOCC5)c([N+](=O)[O-])c4)c(Oc4cnc5[nH]ccc5c4)c3)CC2)=C(c2ccc(Cl)cc2)C1", "assay": "UPLC-MS/MS", "test system": "human patients", "setting": "oral, dose not given, steady state, range", "endpoint": "trough concentration", "result": "51 to 6160 ng/mL"}
{"SMILES": "Cc1ccc(C)c(OCCCC(C)(C)C(=O)O)c1", "test system": "human, plasma", "setting": "oral, dose not given, day 15 predose, geometric mean", "endpoint": "trough plasma concentration", "result": "1810 ng/mL"}
{"SMILES": "Cn1cncc1[C@@](N)(c1ccc(Cl)cc1)c1ccc2c(c1)c(-c1cccc(Cl)c1)cc(=O)n2C", "test system": "human, plasma", "setting": "oral, 300 mg/m^2, 12 h after first dose, median, second cohort", "endpoint": "trough concentration", "result": "79 ng/mL"}
{"SMILES": "Cc1cnc(N2CC3(CCOCC3)C2)c(C(=O)Nc2ccc(C(=O)N3CCc4cc(C(=O)Nc5c(C)cccc5F)sc4-c4ccccc43)cc2)c1", "test system": "human, nasal mucosal lining fluid", "setting": "inhaled, 5 mg twice daily, 120 h", "endpoint": "trough concentration", "result": "8430 ng/mL"}
{"SMILES": "NC(=O)N1c2ccccc2C=Cc2ccccc21", "test system": "healthy human subjects, plasma", "setting": "oral, dose not given, 12 h, twice daily, alone", "endpoint": "trough concentration", "result": "5930 ng/mL"}
{"SMILES": "COc1cc(Nc2ncc3c(n2)-c2ccc(Cl)cc2C(c2c(F)cccc2OC)=NC3)ccc1C(=O)O", "test system": "human patients, plasma", "setting": "oral, 40 mg, cycle 1 day 1, added: pembrolizumab", "endpoint": "trough concentration (C12)", "result": "278 ng/mL"}
{"SMILES": "CC1(C)CC[C@]2(NC(=O)C(C)(F)F)CC[C@]3(C)[C@H](C(=O)C=C4[C@@]5(C)C=C(C#N)C(=O)C(C)(C)[C@@H]5CC[C@]43C)[C@@H]2C1", "test system": "human, plasma", "setting": "oral, 150 mg, day 21 predose, geometric mean", "endpoint": "trough plasma concentration", "result": "30.3 ng/mL"}
{"SMILES": "C[C@@H]1CCO[C@H]2Cn3cc(C(=O)NCc4ccc(F)cc4F)c(=O)c(O)c3C(=O)N12", "test system": "human paediatric patients, weight sample C to under sample D kg, plasma", "setting": "oral, 25 mg film-coated tablet, 24 h, steady state, geometric mean, population PK post-hoc, N 26", "endpoint": "trough concentration (C24)", "result": "369 ng/mL"}
{"note": "Repeated from above:"}
{"SMILES": "N#Cc1ccc2c(c1)[C@H]1CCCN(C(=O)c3ccc4[nH]cnc4c3)[C@H]1C2", "test system": "human, plasma", "setting": "240 mg once daily, day 2", "endpoint": "trough plasma concentration", "result": "2870 nmol/L"}
{"SMILES": "O=C1Nc2ccc(Cl)cc2[C@@](C#CC2CC2)(C(F)(F)F)O1", "test system": "human, plasma", "setting": "oral, 600 mg, day 29, median", "endpoint": "trough plasma concentration", "result": "2260 ng/mL"}
